Experimental data from different studies.
Numbered parts are unrelated; each lists some results of a single study.

Sample 1 — method: RNA Bind-n-Seq; molecule type: RNA; medium: in vitro; concentration: 365 nM; relative to: no-protein control; direction: higher = stronger binding
Target: RNA binding protein fox-1 homolog 2, RRM domain, GST-SBP tag (RBFOX2, Homo sapiens, UniProt O43251-10, residues 100-194)
Setting: natural RNA segment, single round, ends assumed
Shared flanks, not repeated: GGGAGUUCUACAGUCCGACGAUC … UGGAAUUCUCGGGUGCCAA
Target sequence (chain): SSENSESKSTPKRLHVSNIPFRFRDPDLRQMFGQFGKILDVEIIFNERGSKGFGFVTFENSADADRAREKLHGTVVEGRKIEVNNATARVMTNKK
Oligonucleotide	RBNS enrichment (R)
GAGGCUGCUCCUGCCCCGCGCCGCCUCCGCCGAUCUGUGGACCAGGAUUUGGGUCCCGAGGUGCCCCCUGAGAACGUACUGGGGGCUCUGCUACGCGUCAAACGCCUGGA	0.622
AGGACGUGGUGAUGUGAGGUGUGCCCACCUGGUGGCCCUUGCCAUGCAGUGUGAGGGCCCAAAGCUUAUCCUCAAAUAGUCCUGUUUGCCAGGCUCAGUUCCCACCCACA	0.942
CGUUGUUUGACUAUUUUAUAAUUUUGUUAUUAAAACAUCCAGGGUGAUUUCAUCUUUGUUCCUAGAUGUACUCAUUUGAAUAGGUUUUGCGUUCAUUACUCAGCAGUGUA	0.764
CAAGCCUUGCGGUCCAGAUGAGCAUGCCGGAAGGUUUCCUCAUGUAGCGUUCCCACUGGAGCUGUGUGCGCGGUGUGCAAAGGCGAAAAGAUAUGUCAUAGUUGCCAUAA	4.72
UCCGUCCCCCAAACAUGUUGUACAUUUCACCAUGGCCCCCUCAUCAUAGCAAUAACAUUCCCACUGCCAGGGGUUCUUGAGCCAGCCAGGCCCUGCCAGUGGGGAAGGAG	0.58
GAUGUCCCUCCAGCCUCCUCCCCCUCCUCUGCUGGCUCUGGCAACAGAUCCUGGGAUAUGGUAAUUGUUUGGAUUUUCUUUCUUUCUGCAGUUGUGUGUGAAGAACAGGC	0.416
AUCUUUCUGCUGACAACUUAGGUUGUAUGAGUUAUGCUUAAAAGCUUUAAAUCUGAUGUUUCCUGUACCUGCCACACUAUGUUAGAAUGUGUCCUUCAAACAUAUCCUCC	0.296
UACUGACAUGAGUGUCCAAUAUAUGGUAUAUUUUUCUAAUAUAAUACUCUGGUAUGAUUGGUUCUGUUGGAAACUGAUUUAGGUGAAUACAGACAUACCAUAGGGGUAAG	0.407
AAUAGCAAAUAUAUUUUAUAAAGUGAAAAUCCAGUGUGGAGGUAGCAAAGCAUCUAUCUAUUCUGAAUCAUGUUUGGAAAUAAAAUUGCUCCAUCUGGGAAUGUGCUUUC	1.08
UAAGAUCUGAACAUCAGUUUGCAGACAAAAUUAAAUUAGAGCUUUAUUUUAUUUGGAGAAGAGGGAUACAAUGGAAUUUUUCCUUACCAAUUAGAAAUAAUUGUAAUGCC	0.715
GGGCUGGGCAGGCUGGGUGCCGGGCCCACCUUGGUGCUGCCGCGCUGCUCUUAGGUUUGUGUGUGUUUCUCUCCUGGCCAUCCACCCCGGCUGUGGGUCCACCCCAGCCG	0.308
GGAAGGGGAGGCAGGAGGCUGCUUAGUCUGCUGCCAUGAUGGGCCCCAUGAAUGGUGGCUCUCAAGCUUCUGUGCUACACAGGGGUGUGUGGUUGGGCGAGUGUCCUUGU	1.04

Sample 2 — method: protein-binding microarray; molecule type: double-stranded DNA, one strand shown; medium: in vitro; concentration: not given; direction: higher = stronger binding
Target: Protein C-ets-1 (ETS1, Homo sapiens, UniProt P14921, residues 1-441, Y397A, full length assumed)
Setting: k-mer, scored over probes, only values ≥0.25
Target sequence (chain): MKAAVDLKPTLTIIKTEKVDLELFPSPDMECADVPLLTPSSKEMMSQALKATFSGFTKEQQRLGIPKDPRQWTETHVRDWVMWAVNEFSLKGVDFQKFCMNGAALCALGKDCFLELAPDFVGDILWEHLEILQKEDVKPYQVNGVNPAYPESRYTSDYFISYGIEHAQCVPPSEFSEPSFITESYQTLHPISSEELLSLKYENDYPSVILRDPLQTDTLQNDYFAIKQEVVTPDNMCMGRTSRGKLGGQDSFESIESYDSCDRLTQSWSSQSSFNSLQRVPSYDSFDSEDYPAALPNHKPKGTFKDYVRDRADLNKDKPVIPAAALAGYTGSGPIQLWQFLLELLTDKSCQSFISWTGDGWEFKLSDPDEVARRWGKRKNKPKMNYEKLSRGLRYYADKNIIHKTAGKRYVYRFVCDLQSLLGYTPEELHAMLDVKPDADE
Oligonucleotide	E-score
CTTCCGGA	0.413
CCCGCCAC	0.267
AGTGACAA	0.341
ACGGGGCG	0.262
GTGTCATA	0.314
ATGGCAAC	0.274
ATGACAAC	0.309
CTGCCAAC	0.268
ACGTACAA	0.303
CAAAATGC	0.284
AAATTGTC	0.33
CAACGTTG	0.278
ACAACATA	0.284
GGCGCAAA	0.282
GGTTACAA	0.292
GACACACC	0.273
ACAACGGA	0.263
ACAAAGCA	0.288
ACATACAC	0.271
CAAATTTG	0.333

Sample 3 — method: universal PBM; molecule type: double-stranded DNA, one strand shown; medium: in vitro; concentration: not given; direction: higher = stronger binding
Target: Sal-like protein 4, full length isoform B (SALL4, Homo sapiens, UniProt Q9UJQ4-2, residues 1-616)
Setting: 8-mer, flanks averaged, mean of replicates
Oligonucleotide	E-score
CAATATAC	0.292
TGACGACA	0.0235
AGTTCTAC	0.0402
GGTTGCTA	-0.0448
AAGTCAAG	-0.142
CTTTCCGA	-0.0564
ATTCCAAT	0.237
CCTATGCG	-0.0646
ACAGTACC	-0.0339
CTCCGGCA	-0.211
GCACTGAC	-0.111
ACGCGTAA	0.0793
CCATATAG	0.119
GAGTCGGA	-0.145
CAGTCATG	-0.153
ACTAAAGA	0.00098
ACACAACT	0.109
CATCGTCC	-0.0665
ACGCTTAA	0.114
CGAACCAA	-0.0432
GCTCAGTA	0.0705
AGGACTAT	0.042
ACAGTCCC	-0.207
ACGATGAG	0.0933
AACATTGT	0.269

Sample 4 — method: RNA Bind-n-Seq; molecule type: RNA; medium: in vitro; concentration: not given; relative to: input RNA pool; direction: higher = stronger binding
Target: RING finger protein unkempt homolog, zinc fingers 1-6, GST-SBP tag (UNK, Homo sapiens, UniProt Q9C0B0, residues 30-357)
Chain of UniProt Q9C0B0 (30-357, looked up): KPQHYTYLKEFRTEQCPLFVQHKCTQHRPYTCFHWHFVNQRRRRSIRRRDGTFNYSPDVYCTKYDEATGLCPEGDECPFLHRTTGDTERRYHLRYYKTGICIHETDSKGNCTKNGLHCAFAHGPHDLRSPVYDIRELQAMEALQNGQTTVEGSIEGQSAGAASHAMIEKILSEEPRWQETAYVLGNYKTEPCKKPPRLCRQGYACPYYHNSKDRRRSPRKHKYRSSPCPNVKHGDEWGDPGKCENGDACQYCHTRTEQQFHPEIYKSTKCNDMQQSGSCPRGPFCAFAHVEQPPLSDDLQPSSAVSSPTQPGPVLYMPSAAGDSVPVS
Setting: RNA with constant flanks, human-mouse chimeric sites, ends assumed
Shared flanks, not repeated: GGGAGUUCUACAGUCCGACGAUC … CAACAGAGGAUUGAGCAUCA
Oligonucleotide	bound/input enrichment
GAUGAUAAUCACACAAACAAGUCACUGUUACAUGACCAGCCUUGGGAUUCUUUUCCUGAUUAGUAUUCUCCCUGGAACCACUGGUCAAGGGGAAUCAAGACGACAAGAACCUGGGGACUU	0.161 ratio
CCUGCUCAGAUCACCAUGAAAGUAAUCCAAGGCCUAUAUAGUGGGGUCACCACAGUGGAACUGGACACUUUGGCUGCUGAGACAGCCGCAACCUUGACCACGAAGCACCCUGACUAUGCC	0.125 ratio
UCAACAGACAACAUCAAAUACCAGCCUAAGGGGGGUCAGGUACAAAUUGUUACCAAGAAAAUAGACCUAAGCCAUGUGACAUCCAAAUGUGGCUCUCUGAAGAACAUCCGCCACAGGCCA	0.679 ratio
UAAAUCCUGUGCCAGCACUUCGCUCAUAAAGUUUUAAAUUCUGGACCAAUAGUGUUUGUUUCCUGAUUAUUGUAUCCAAUACUUUGCCUAGUAUGUAACUCACUCUUCUGGAUAAAUAAA	2.35 ratio
GCUCUUGGGAAUGUAAUAAGUGCCUUGGGGGACAAGAGCAAGAGGGCCACCCAUGUCCCUUACAGAGACUCUAAGCUGACAAGACUCUUGCAGGAUUCCCUUGGGGGUAACAGCCAAACC	0.133 ratio
UCUUUAAAUGCACUACAACCUUUUCUGACAGUGCUUUCCCUCCCAUAGAUCCACGUUCAAGCUCAAAGAGCAAAGGCUUUGCACGGAGCUCAAACAUAAAAGAAAGAAAGAUUUCUGAGA	0.354 ratio
GAUGAUAAUCACACAAAUGUGGCACUUUUACAUGACCAGAGUUGUACUUCUUUUCCUGAUUAAUAUUCUCCCUGGAACCACUGGUCAAGGGGAAUCAAGACGACAAGAACCCGGGGACUU	0.205 ratio
AAUUUCCUGUCAUACUUUGUAGCAAGACACAUCAGACUUACAGAGCACCUGGCCACAUUCUAGGUUUGAAUUAUUUCUCAGCUAUGGAUAUGAUCAAAUGAGAACACUGCUUAACUAAUG	0.345 ratio
CUGGCACUCUAUCAGAUAUAUUAAUUUUUUAAUGUAGAUGUAAUUUUAAAAAUGAAUGGCUACUUUACACGUUUAACUAGGGUUUUACUAUAUAUGUGUGUGUAUAUAUAUGUAUUUAUA	9.53 ratio
UACUACUGAAUCUGUGAUAUUGGCAAUUAUUAUUAUGGCCAGGGUCAUCCCAUGAAGCCUCAUAGAAUCCGGAUGACUCAUAACUUGCUGCUAAAUUAUGGUUUAUACCGAAAAAUGGAA	0.184 ratio
AACAGAUUUCUCAAGCACAUUCCAAGCGAGAAUGCUGGGGUGAUCAUUGUUGCCCAUGUGCCUUCUGUAAUAGAUGGAAUGCUGUUCCAUGUUACAUCUUUCCUUCACUCCAGAAUUGUU	0.123 ratio

Sample 5 — method: RNAcompete; molecule type: RNA; medium: in vitro; concentration: 20 nM; setting: 7-mer, probes averaged, single round; relative to: mean of 7-mers; direction: higher = stronger binding
Target: PABPC1L2, full length, GST fusion (mouse, UniProt A0ABA7IW68)
Construct (chain): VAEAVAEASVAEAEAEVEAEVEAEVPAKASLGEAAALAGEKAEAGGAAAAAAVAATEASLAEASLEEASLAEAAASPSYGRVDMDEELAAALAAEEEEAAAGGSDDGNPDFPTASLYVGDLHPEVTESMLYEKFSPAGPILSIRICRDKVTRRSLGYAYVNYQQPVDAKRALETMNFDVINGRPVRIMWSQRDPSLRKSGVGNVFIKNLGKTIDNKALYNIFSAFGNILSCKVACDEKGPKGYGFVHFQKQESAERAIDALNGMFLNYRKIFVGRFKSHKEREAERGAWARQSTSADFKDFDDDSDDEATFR
Oligonucleotide	7-mer Z-score
GAAGGGA	0.356
AUGACAG	-0.0808
CUCGAAU	-0.128
UAUGUUG	-0.159
AAUUAUG	0.0587
UCUACUU	-0.248
AGCGGUC	-0.249
UAUCAAC	-0.17
UUGCCGU	-0.405
CGUAACU	-0.251
CGCACAU	-0.208
AUUGGCG	0.0189
GUAAUAC	-0.144
CGCUAGC	-0.266
GGCGUGC	0.0569
GACGCAU	-0.0953
CAACAAA	1.86
AGGCUCA	0.0877
AUGGCGG	0.215
CACACAU	-0.121
CUUGGUU	-0.356
UAAGAAC	0.0478
GCUCUAC	-0.22
GUUAUGA	-0.124
GCGCUCA	-0.258

Some of these lines once more (sample 5):
Oligonucleotide	7-mer Z-score
CGCUAGC	-0.266
GUAAUAC	-0.144
GGCGUGC	0.0569
CUUGGUU	-0.356
AGGCUCA	0.0877
AGCGGUC	-0.249
GCUCUAC	-0.22
GCGCUCA	-0.258
UAAGAAC	0.0478
CGUAACU	-0.251
